Experimental data of several laboratories.
Parts stem from different laboratories: compare values within a part only.

Set 1
Target: Sal-like protein 4, full length isoform B (SALL4, Homo sapiens, UniProt Q9UJQ4-2, residues 1-616)
Technique: universal PBM
Molecule type: double-stranded DNA, one strand shown
Medium: in vitro
Concentration: not given
Notes: 8-mer, flanks averaged, mean of replicates
Reading: higher = stronger binding
Residues (chain): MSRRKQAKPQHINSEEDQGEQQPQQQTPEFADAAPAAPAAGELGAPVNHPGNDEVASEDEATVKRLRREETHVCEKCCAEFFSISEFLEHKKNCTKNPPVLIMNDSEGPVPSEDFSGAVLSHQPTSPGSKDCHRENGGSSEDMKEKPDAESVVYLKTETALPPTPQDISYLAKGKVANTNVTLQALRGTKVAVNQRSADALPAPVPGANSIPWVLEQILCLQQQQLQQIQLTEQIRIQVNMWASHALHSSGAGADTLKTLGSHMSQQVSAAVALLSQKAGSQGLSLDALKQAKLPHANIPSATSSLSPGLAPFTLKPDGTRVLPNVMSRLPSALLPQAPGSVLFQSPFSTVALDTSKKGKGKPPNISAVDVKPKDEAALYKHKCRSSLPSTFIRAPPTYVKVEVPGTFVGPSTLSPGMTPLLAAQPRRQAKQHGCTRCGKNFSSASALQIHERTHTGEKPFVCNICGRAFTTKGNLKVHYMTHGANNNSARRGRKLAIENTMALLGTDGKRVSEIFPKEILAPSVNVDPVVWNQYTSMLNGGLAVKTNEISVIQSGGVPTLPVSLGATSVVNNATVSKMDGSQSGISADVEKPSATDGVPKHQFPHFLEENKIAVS
| Oligonucleotide | E-score |
| --- | --- |
| CCGTATAA | 0.108 |
| AAACAATA | 0.344 |
| GCTCGCTA | -0.222 |
| CTCACGTA | -0.0566 |
| GGTAAAAA | 0.16 |
| CCGTGCCC | -0.276 |
| CCTCTAAG | 0.0149 |
| GTTTAAAA | 0.145 |
| CACCCCAA | -0.0631 |
| CAAACATG | 0.182 |
| AGGTCACA | -0.0698 |
| TAAAATGA | 0.296 |
| ATTCTACC | 0.22 |
| TACAATCA | 0.213 |
| TCCAGAGA | -0.268 |
| CAGTTTCG | -0.0979 |
| CTGATGTA | 0.154 |
| AACGGGCA | -0.0852 |
| CAACCATG | -0.0437 |

Set 2
Target: RNA binding protein fox-1 homolog 2, RRM domain, GST-SBP tag (RBFOX2, Homo sapiens, UniProt O43251-10, residues 100-194)
Technique: RNA Bind-n-Seq
Molecule type: RNA
Medium: in vitro
Concentration: 365 nM
Notes: natural RNA segment, single round, ends assumed
Baseline: no-protein control
Reading: higher = stronger binding
All sequences stand within: GGGAGUUCUACAGUCCGACGAUC … UGGAAUUCUCGGGUGCCAA
Target sequence (chain): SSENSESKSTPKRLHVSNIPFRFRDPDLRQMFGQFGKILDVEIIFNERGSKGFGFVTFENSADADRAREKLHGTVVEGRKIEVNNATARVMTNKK
| Oligonucleotide | RBNS enrichment (R) |
| --- | --- |
| CCUUGACCAACUAGUCCAGCAUUUGACAUGCAUUUUAACUUUUUGGUUCAAUUUCAAGUCUGCUGUGGCUAAUAGUGGUCAAGAUUCCGAACUAGGACUUUCCUCUGUGA | 0.231 |
| CCUGGUUCCUUUCCAGCUGGUUGUGGAAGUAAUGGCUAACAUCCUUCAGCUGACUUUGUCUACAAGGAUUAUUAGCAAAUUCUGUAGGAGCAAGCAUGUCUGACCUUAAC | 1.87 |
| CCUUCUCCAAGCUUGAAUGUCUUCCGGACCCUGAGAGAGGAGGACUCCACGGAGCCAGGCCUCCUCCCAUGGGGUGUCCCAGUGUAUAACUUUAUGACUUAGUUCUUCAU | 0.491 |
| UGGGCCCUCCCACUUGCCUCUGCCACCUCCCCUCAUAGCUAUUCCUGGCUUGCUGUCUGCAAGGCCCAUGUGGGCCUUUUGGCUGAAGCAUUUGUAGAAGCAGCCAUCUU | 0.673 |
| GAUGUUAGGUAAAACAUGUAAUUGUUUCUCUGGCAAAUUUGUAUCAGUAAUUUGAAAAUGAGAUAUUAGGAAAAACCAAUUCUUCUUAAAUUUAGUUCAUCUUUCUUUAA | 0.439 |
| UUUUAUUGUCCAAAGAGAGUCAGAGCUAAGCAUACAGGCUUGGGGGUGAGCCCUGCUGUGAGAGUUCAGGCCCUGGGAGGCUCAGCCACCUCCUCUUGUGGGAAGGAGGU | 0.501 |
| UGUGUUAACACAGAACUGAUGUUUAGCAUUCUGCCGCUUUCGUAUUUAUGUAACAAUUCCUUAAAGCCAUUCAAAUGGCUAACUAUUUAAUUUCUUUAGGACAGUUGUAA | 0.463 |
| AGAAUGCCUGCCAUGGGCACUUCUCUGUACCCGGGCUCCAGUGCCAGGCCAGCCUCUCACUCCCAAGCCAUAGUCCUACUCCCAUGGGAAAGGAGGUCUUCUCUCUGCCC | 0.361 |

Set 3
Target: Histone acetyltransferase KAT6A, winged helix 1, GST fusion (KAT6A, Homo sapiens, UniProt Q92794, residues 1-85)
Technique: protein binding microarray
Molecule type: double-stranded DNA, one strand shown
Medium: in vitro
Concentration: not given
Notes: 8-mer, flanks averaged, mean of 2 arrays, mostly near background
Baseline: not given
Reading: higher = stronger binding
Target sequence (chain): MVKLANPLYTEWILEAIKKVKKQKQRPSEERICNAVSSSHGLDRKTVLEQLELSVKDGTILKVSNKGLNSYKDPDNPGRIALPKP
| Oligonucleotide | E-score |
| --- | --- |
| CACCTGTA | -0.153 |
| ATCAGTTG | -0.149 |
| CAGTTCCA | -0.208 |
| GGTCACTA | -0.101 |
| GAAGTTAC | -0.0676 |
| ATTCGACG | -0.00767 |
| TGAAGACA | -0.165 |
| ACCCCCAG | -0.152 |
| AGACGTGG | -0.137 |
| CTGTACCC | 0.0975 |
| CTGGAATC | -0.146 |
| ATTCATGG | -0.102 |
| AGTGCGGA | 0.136 |
| CGTCCAGA | -0.0917 |
| AAGACGAA | -0.0388 |
| TCAGGGCA | -0.129 |
| CGAGTGCA | -0.104 |
| CCAAATGG | -0.206 |
| TATCGGCA | 0.134 |
| GCGGCGTA | 0.403 |
| ATCTGCTG | -0.192 |
| CGGGGGGC | 0.351 |
| CCAGGACA | 0.0228 |
| GCCGTCGC | 0.464 |
| GGTGCCAA | -0.25 |

Set 4
Organism: Saccharomyces cerevisiae
Observed: peptide binding
Technique: yeast competitive growth sequencing
Molecule type: peptide
Strain: cyclin F-Cln2 fusion
Concentration: concentration not given
Notes: library 2, Cln2-subtracted
Reading: direction not given
| Molecule | binding score |
| --- | --- |
| LLRRLQDVANDRG | 1.06 |
| LLKRLQDVVSERA | 0.877 |
| GFGFLLFICKLTF | 2.25 |

Set 5
Target: RING finger protein unkempt homolog, zinc fingers 1-6, GST-SBP tag (UNK, Homo sapiens, UniProt Q9C0B0, residues 30-357)
Technique: RNA Bind-n-Seq
Molecule type: RNA
Medium: in vitro
Concentration: not given
Notes: RNA with constant flanks, human and mouse sites, ends assumed
Baseline: input RNA pool
Reading: higher = stronger binding
All sequences stand within: GGGAGUUCUACAGUCCGACGAUC … CAACAGAGGAUUGAGCAUCA
Residues (chain): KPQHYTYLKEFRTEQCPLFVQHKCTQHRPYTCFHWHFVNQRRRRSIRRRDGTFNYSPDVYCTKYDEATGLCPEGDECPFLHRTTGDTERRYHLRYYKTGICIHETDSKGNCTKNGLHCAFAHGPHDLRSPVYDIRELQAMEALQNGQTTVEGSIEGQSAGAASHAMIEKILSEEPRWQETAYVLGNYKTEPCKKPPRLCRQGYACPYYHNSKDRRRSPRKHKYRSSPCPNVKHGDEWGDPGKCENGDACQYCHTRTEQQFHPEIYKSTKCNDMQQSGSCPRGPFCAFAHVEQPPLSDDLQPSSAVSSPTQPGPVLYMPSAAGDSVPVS
| Oligonucleotide | bound/input enrichment [ratio] |
| --- | --- |
| CGAAAUUGGGAUGACAUGAAACACCUGUGGGACUACACAUUUGGACCAGAGAAACUUAAUAUAGAUACCAGAAAUUGUAAAAUCUUACUCACAGAACCUCCUAUGAACCCAACCAAAAAC | 0.559 |
| GUUACAGGAAGUCCCUUGCCAUCCUAAAAGCCACCCCACUUCUCUCUAAGGAGAAUGGCCCAGUCCUCUCCCAAGUCCACACAGGGGAGGUGAUAGCAUUGCUUUCGUGUAAAUUAUGUA | 0.271 |
| UGUUUGUUUGUUUGUAGUCUUGAUGCUCUCCUGUGGUUUACUUCCCUUCUGAUAGGACACUAUAGCCAGUCUCAGCACUCGUAAGUGCGGAGGGCCACAUCCAGGAAAGAAGGCAGAGCC | 0.596 |
| CGUUUCACAUCCAUGACACGACUCUACUAUAGAGAUGCUUCUGCCUGUGUUAUUAUGUUUGACGUCACCAAUGCCACUACUUUCAGCAACAGCCAAAGAUGGAAACAGGAUCUGGACAGC | 0.146 |
| CUCACGGCCCAGCAUGAAAACUUCAGGAAAAAGCAAAUUGAGGAACUGAAGGGACAGGAAGUUAGCCCUAAAGUUUACUUCAUGAAGCAGACCAUCGGAAACUCCUGUGGUACCAUCGGG | 0.0922 |
| GCCUGCAGUGGGACUGCUCCUUUGAUAUCUGAACCUCUGUUAUGGGCUUCUCUGAGACAAGUAAAUGUCAGGUGCAAGAUCUGGAUACUAACAGUUUCAGUUUGGGAAAUCCAAGAAAAA | 0.151 |
| GCGUAUGCAGCAGAUGGUUGGCCAGCUGGGCAUCCUGACGCCGUCCCUCACCCUGCCCUUCAGCCCCUACAGUGCCUACGCCCAGGCUCUCAUGCAGCAACAGACAACAGUGUUGUCCAC | 0.145 |
| UUUUAUUGAUCAGGUCUGUAAAUGUGUACUAAAAAAAUCAGAGUUUAUUUAUAAACAAAAUAGUUUAUUUAAAGAGAAGGUCUCUUCCUUAUUGAUAUCAUGGUAUGCAUUAAUUCCAUU | 8.31 |
